Measured values gathered from unrelated publications.
Compare with care: the assays were run in different laboratories. ± gives the spread as reported.

C[C@@H](Oc1ccc(S(C)(=O)=O)cc1C(=O)N1C[C@@H]2C[C@]2(c2cc(C(F)(F)F)on2)C1)C(F)(F)F
subjects with infections and infestations (human; oral, 25 mg): 16.7%

O=c1[nH]c(=O)n([C@H]2C[C@H](O)[C@@H](CO)O2)cc1CCCCC[18F]
blood activity (tumour-bearing nude mice, blood; intravenous, dose not given, 2 min): 10.6 ± 4.11 %ID/g

CCCOc1ccc(NC(=O)CN2CCN(C)CC2)cc1-c1nc(CC)c(CC)c(=O)[nH]1
drowsiness incidence (healthy Chinese men; 10 mg, with: alcohol 0.5 g/kg): 20%

CC(C)(C(=O)N1CCOc2c(C#N)cncc2C1)C(F)F
subjects with adverse event (item: ALT increased; human; oral, 15 mg twice daily, 14 days, multiple ascending dose): 12.5%

Cc1ccc(Sc2ccccc2N2CCNCC2)c(C)c1
participants with TEAE (item: Somnolence; healthy adult men; oral, 10 mg single dose): 0%

COc1cc(C(=O)N2CCC3(CC2)CC(=O)c2c(cnn2C(C)C)C3)cc(-c2ccc(C(=O)O)cc2)n1
percentage change from baseline (item: HDL cholesterol; human, fasting serum; 3 mg every 12 h, day 13, adjusted geometric mean; reference: baseline): -3.4%

CC(C)[C@H](N)C(=O)NCCCS(=O)(=O)O
AUC(0-12) (human both sexes, plasma; oral, 171 mg once daily, day 1, fasted capsule): 6260 ng·h/mL

Nc1ccn([C@@H]2O[C@H](CO)[C@@H](O)C2(F)F)c(=O)n1
Tmax, mean (item: dFdU; human, plasma; intravenous, 800 mg/m^2, with: after paricalcitol): 1.06 h

CC(C)NCC(O)c1ccc(NS(C)(=O)=O)cc1 (racemic)
QTc interval (male Hartley guinea pig, anaesthetized; intravenous, 1 mg/kg, baseline before infusion): 314 ± 0.4 ms

O=C(Nc1nc2cccc(-c3ccc(CN4CCS(=O)(=O)CC4)cc3)n2n1)C1CC1
treatment-emergent adverse events (item: constipation; human rheumatoid arthritis patients; oral, 150 mg once daily, 4 weeks, regardless of relatedness): 6.7%

O=C(NCC1(C(=O)O)CCC1)Nc1cc(-c2ccccc2)on1
DLS scattered light intensity (colloidal aggregate formation, dynamic light scattering; 50 mM potassium phosphate buffer; 200 µM, pH 7.0, 1% DMSO; higher = more aggregation): 1.29e+06 counts/s

O=C(C[n+]1cc(-c2ccc(Cl)cc2)n2c1CCC2)Nc1ccc(Cl)c(Cl)c1
HC50 (haemolysis; sheep erythrocytes; 1 h, pH 7.5): > 128 µg/mL

CON(C)C(=O)[C@H](CCSC)NS(=O)(=O)c1cccc(Cl)c1O
DLS scattered light intensity (colloidal aggregate formation, dynamic light scattering; 50 mM potassium phosphate buffer; 200 µM, pH 7.0, 1% DMSO; higher = more aggregation): 589000 counts/s

Cc1cc(-c2nccc3c2ccn3CC(=O)Nc2ccc(-c3cnccn3)cn2)ccn1
subjects with limb injury (human; 15 mg once daily, multiple ascending dose): 0%

CC(C)CCC[C@@H](C)[C@H]1CC[C@H]2[C@@H]3C(O)CC4=CC(=O)CC[C@]4(C)[C@H]3CC[C@]12C (stereo partly drawn)
daily mean concentration (human, plasma; endogenous baseline diurnal): 64.8 ± 14.1 nM

O=C(Nc1ccc(NS(=O)(=O)c2cccc(Cl)c2O)cn1)C1CC1
DLS scattered light intensity (colloidal aggregate formation, dynamic light scattering; 50 mM potassium phosphate buffer; 200 µM, pH 7.0, 1% DMSO; higher = more aggregation): 319000 counts/s

CNC(=O)c1cc(Oc2ccc(NC(=O)Nc3ccc(Cl)c(C(F)(F)F)c3)c(F)c2)cc[n+]1[O-]
metabolite to parent AUC ratio (Oatp1b2 knockout mice, plasma; oral, molecular weight corrected, with: regorafenib single dose): 12%

O=[N+]([O-])c1cnc2ccc(Cl)cc2c1O
HC50 (haemolysis; sheep erythrocytes; 1 h, pH 7.5): > 128 µg/mL

CCN1/C(=C/C(C)=O)Sc2ccc(F)cc21
systolic blood pressure change (cynomolgus monkey; oral, 100 mg/kg, 0.5 h post-dose; reference: pre-dose): 100 ± 6%

Cc1cc(N2CCc3c(c(C)nn3CC34CCC(NC(=O)[C@@H]5COCCN5)(CC3)CC4)C2)c2cnn(C)c2n1
blood concentration (129/Sv mice, blood; oral, 1.5 mg/kg, 3 h, with: TLR7 agonist ssRNA): 70 ± 4 nM

CCOc1c([C@H](C)n2nc(C)c3c(N)ncnc32)cc(Cl)c(F)c1[C@@H]1CNC(=O)C1
Cmax (human, B-cell malignancies, plasma; oral, 20 mg, day 15): 1720 nM

CNCCOC12CC3(C)CC(C)(CC(Cn4ncc(-c5ccc(N6CCc7cccc(C(=O)Nc8nc9ccccc9s8)c7C6)nc5C(=O)O)c4C)(C3)C1)C2
PR interval change (beagle dog, male, anaesthetised; intravenous bolus, 0.03 mg/kg, 5 min; reference: baseline): -8 ms

COc1ccc(-n2nc(C(N)=O)c3c2C(=O)N(c2ccc(N4CCCCC4=O)cc2)CC3)cc1
CL renal/F (population PK model (NONMEM); human, plasma; oral, full model): 21.5 ± 2.52 mL/min

C=CC(=O)N1CCC(c2ccc(C(N)=O)c(-c3ccc(Oc4ccccc4)cc3)n2)CC1
serious treatment-related AE rate (relapsed/refractory mantle cell lymphoma patients; oral, 100 mg twice daily, part, CTCAE v4.03): 0%

Cc1nnc(SCC2=C(C(=O)O)N3C(=O)[C@@H](NC(=O)Cn4cnnn4)[C@H]3SC2)s1
deviation from nominal concentration (human whole blood; concentration not given, 24 h, 4 °C): -3.7%

CC(C)C[C@H](NC(=O)[C@@H](Cc1c[nH]c2ccccc12)NC(=O)[C@H](Cc1ccc(O)cc1)NC(=O)[C@H](CO)NC(=O)[C@H](Cc1c[nH]c2ccccc12)NC(=O)[C@H](Cc1c[nH]cn1)NC(=O)[C@@H]1CCC(=O)N1)C(=O)N[C@@H](CCCNC(=N)N)C(=O)N1CCC[C@H]1C(=O)NCC(N)=O
patients, drug-related laboratory TEAEs (Chinese CPP children, boys; intramuscular, 22.5 mg, 12 months, day 1, month 6): 25%

CO[C@H]1CC[C@H](N2C(=O)CNc3ncc(-c4ccc(C(C)(C)O)nc4)nc32)CC1
urinary excretion Ae(0-24 h) (patients, urine; oral, 30 mg, day -1, geometric mean): 28100 ng

COc1cc(N)c(Cl)cc1C(=O)NC1CCN(CCCOc2ccc(F)cc2)CC1OC (stereo not drawn)
QTc interval (male Hartley guinea pig, anaesthetized; intravenous infusion, 0.1 mg/kg, 10 min infusion, post-infusion): 327 ± 1.3 ms

FC(F)(F)c1ccc(CNc2ccc(Cc3c[nH]c4ncc(Cl)cc34)cn2)cn1
adverse event incidence (item: Diarrhoea; patients with advanced solid tumours; oral, dose not given, grade 1 and 2, possibly related to drug): 26%

CN1C[C@H](COc2nccc3c(NCc4ccco4)cc(Cl)nc23)OC1=O
effect on PR (rabbit, isolated Langendorff heart; dose not given): negative

Cc1ccc(C)c(OCCCC(C)(C)C(=O)O)c1
trough plasma concentration (human, plasma; oral, dose not given, day 15 predose, mean): 2030 ng/mL

N#Cc1ccc2c(c1)[C@H]1CCCN(C(=O)c3ccc4[nH]cnc4c3)[C@H]1C2
total testosterone level (human males; 40 mg, day 7): 14.6 nmol/L

C=CC(=O)Nc1cc(Nc2nccc(-c3cn(C)c4ccccc34)n2)c(OC)cc1N(C)CCN(C)C
recovery (storage stability; human dried blood spots; 5 h, on ice, medium QC level): 81.1%

O=C1N[C@H](c2cncc(C#Cc3ccccc3)c2)[C@@H](c2ccccc2Cl)O1
NOAEL (monkey; 28 days): 200 mg/kg/day

CNC(=O)c1ccc(-c2cnc3ncc(Cc4ccc5ncccc5c4)n3n2)cc1F
adverse event incidence (phase 1 clinical trial, item: blood alkaline phosphatase increased; all expansion cohorts; oral, 600 mg twice daily, grade 3 or 4): 0%

Cc1ccc([C@@H]2O[C@H](CO)[C@@H](O)[C@H](O)[C@H]2O)cc1Cc1ccc(-c2ccc(F)cc2)s1
urinary potassium excretion change (Japanese type 2 diabetes patients; 100 mg, day 18, 24 h urine collection; reference: baseline): -4.99 mEq

CC1CC1(C(=O)O)C(=O)NCc1ccc(Sc2ccccc2)cc1 (stereo not drawn)
DLS scattered light intensity (colloidal aggregate formation, dynamic light scattering; 50 mM potassium phosphate buffer; 200 µM, pH 7.0, 1% DMSO; higher = more aggregation): 592000 counts/s

COc1cccc(-c2n[nH]c(SCc3ccccn3)n2)c1OC
haemoglobin (Sprague-Dawley rats, male; diet, 100 mg/kg/day, day 14, 90-day subchronic study): 15.6 g/dL

CNC(=O)c1cc(Oc2ccc(NC(=O)Nc3cc(C(C)(C)C)nn3-c3ccc4ncccc4c3)c(F)c2)ccn1
patients with any AE of special interest (item: worst grade 1; human; oral, dose not given, cycles 1 and 2, High AUC(0-4 h) subgroup): 39%

Repeated from above:
O=c1[nH]c(=O)n([C@H]2C[C@H](O)[C@@H](CO)O2)cc1CCCCC[18F]
blood activity (tumour-bearing nude mice, blood; intravenous, dose not given, 2 min): 10.6 ± 4.11 %ID/g

O=C(NCC1(C(=O)O)CCC1)Nc1cc(-c2ccccc2)on1
DLS scattered light intensity (colloidal aggregate formation, dynamic light scattering; 50 mM potassium phosphate buffer; 200 µM, pH 7.0, 1% DMSO; higher = more aggregation): 1.29e+06 counts/s

O=[N+]([O-])c1cnc2ccc(Cl)cc2c1O
HC50 (haemolysis; sheep erythrocytes; 1 h, pH 7.5): > 128 µg/mL

C=CC(=O)Nc1cc(Nc2nccc(-c3cn(C)c4ccccc34)n2)c(OC)cc1N(C)CCN(C)C
recovery (storage stability; human dried blood spots; 5 h, on ice, medium QC level): 81.1%

Cc1nnc(SCC2=C(C(=O)O)N3C(=O)[C@@H](NC(=O)Cn4cnnn4)[C@H]3SC2)s1
deviation from nominal concentration (human whole blood; concentration not given, 24 h, 4 °C): -3.7%

O=C(C[n+]1cc(-c2ccc(Cl)cc2)n2c1CCC2)Nc1ccc(Cl)c(Cl)c1
HC50 (haemolysis; sheep erythrocytes; 1 h, pH 7.5): > 128 µg/mL
